# Experimental data gathered from unrelated publications.
# Each numbered part is a random draw from the data of one study; scales do not carry over between parts.

# Block 1 — technique: RNA Bind-n-Seq; molecule type: RNA; medium: in vitro; concentration: 365 nM; relative to: no-protein control; direction: higher = stronger binding
# Target: RNA binding protein fox-1 homolog 2, RRM domain, GST-SBP tag (RBFOX2, Homo sapiens, UniProt O43251-10, residues 100-194)
# Setting: natural RNA segment, single round, ends assumed
# Residues (chain): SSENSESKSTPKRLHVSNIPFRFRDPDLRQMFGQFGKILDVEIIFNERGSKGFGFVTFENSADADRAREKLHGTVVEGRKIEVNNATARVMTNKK
Strand,RBNS enrichment (R)
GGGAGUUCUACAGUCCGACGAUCGAAUGUGCUCAUAGACCAUCAGACGCUUGUCGAAGGCAGGUCCUAGUCAUGUAAUUGCACAGGACAAGGAGGUCAGCGUGUGUGAUGGCAGCAUGCUGUGCCGGCACAUCUGGAAUUCUCGGGUGCCAA,14.6
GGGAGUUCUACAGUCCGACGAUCGUUUUCCUGACUUCCAGCCUUGCCUGACUCACCGGGAUCCUUAUGUUUGGGCCUUCCCCAUCCUAUUGGACUGGCUGAUGCUCCUAGUUUAUAAUGUUCUGGCGUUGUAGUGGAAUUCUCGGGUGCCAA,0.448
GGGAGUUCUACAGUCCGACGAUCCUAGCUGUCAGCUUAAACCCUCUGUAAUAGAACAUGGAAACAGACACAUAAAGACAUUAGCUGAAAAAAUAGAGUGAAAAUCAACUAUUUUUUACUCCCGCUAAUUUCAAUGGAAUUCUCGGGUGCCAA,0.291
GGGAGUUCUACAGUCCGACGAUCGGCAAAUGUCUGGAUGUCGCAUUUCCUCACCCCCCACCUCAUGAAUCCUACUUCUCCCCAACAUAGAAGUAGACAUUUCUCAUCCCAUUCUUUGUAAAUGUCCACACCCUUGGAAUUCUCGGGUGCCAA,0.94
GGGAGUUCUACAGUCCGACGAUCAUCCCUAAAGAUACUUCCAACAUAUUGUUAGAGUAAGUAUUAAAAGAAAAAGUAGGUUUGCUGAAAAACAUUACUAAAUGACUUGGAGCUCUCCAGUCAAAGAAACAAAGUGGAAUUCUCGGGUGCCAA,0.477
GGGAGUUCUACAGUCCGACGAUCACGCUUGUUAAAGGCUAUUUUCUAUAUUUAUUGUUGGGAAAAGUCACUUUAAAGACUUGUGCUAUUUGGAAGCAAAGCUAUUUUUUUUGUCAGUGGAAUGCAGUUUUUUUUGGAAUUCUCGGGUGCCAA,1.62
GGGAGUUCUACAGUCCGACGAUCCUACCAUUUAGCGGAGUUAUCUUUGAAAAGACAUCAACAUCCCUGUGCAUUUGUCAGUCUGGUAGAGUGGACUGGAGGUUGUCAAGUCUGCAUUGUAGUCUGAGUGUGCCUGGAAUUCUCGGGUGCCAA,0.704
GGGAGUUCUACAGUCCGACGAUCAGUCUGGAGUCUAGGGUUGGGCAGAAGAUGACAUUUAAUUUGGAAAUUUCUUUUUACUUUUGUGGAGCAUUAGAGUCACAGUUUACCUUAUUGAUAUUGGUCUGAUGGUUUGGAAUUCUCGGGUGCCAA,0.686
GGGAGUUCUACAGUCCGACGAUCACCUUCCCUCUUCCGGAUCUGUUUUGGUCUGGACUAUGGGCUCAUCAGGCCCAGGAUCCCGGACCAAAGACUGAGAUGACCCUUCCAAUAAAAGGCCAUUUCGGACUCUGUGGAAUUCUCGGGUGCCAA,0.286

# Block 2 — technique: protein-binding microarray; molecule type: double-stranded DNA, one strand shown; medium: in vitro; concentration: 940 nM top; setting: 60-bp whole probe; added: salmon DNA 0.4 mg/ml; relative to: random background probes; direction: higher = stronger binding; all sequences stand within: GCCTAGCAC … GTCTTGATTCGCTTGACGCTGCTG
# Target: Interferon regulatory factor 5, full length, phosphomimetic (IRF5, Homo sapiens, UniProt Q13568-2, residues 1-514, S451D/S453D/S456D/S462D)
Strand,fitted relative affinity [z-score]
TTAGGATTGGACTTTCGGTTAGTGCTA,2.42
TTAGGTATCGGACTGGGGTAGTGCTAG,3.53
TTAGGTCTCCTTTTCCTTAAGTGCTAG,1.14
TCAGATATCAGTCTCGATTAGTGCTAG,3.15
TCATGCTTAGTATTTTTTACTGTGCTA,0.296
GTTTTTTTCTATATGCAATGGTGCTAG,1.55
GACGGTTCCCGTTTCGGGACGTGCTAG,1.47
GACGGTATCGCCACTGGGGACGTGCTA,1.97
TCATCTTTCTACATAGAACTGTGCTAG,0.648
GACGGACTGGGGTATCGGGATGTGCTA,0.652
ATTCCTTTGCCTCCAGGCGCGTGCTAG,0.146
GACGACCTCAGTATCGAGACGTGCTAG,1.52
GACGACTTCGGGACTGGAGACGTGCTA,-0.291
TTAGAACTGGGTTATCGATTAGTGCTA,0.117
AAAGTTTTTCATTTTTTTTCGTGCTAG,0.836
TTAGGTATCGGACTGTGTTAGTGCTAG,3.74
GACGGACTGAGGACTGGGGACGTGCTA,-0.619
GACGATTTCAGCTTCGAGACGTGCTAG,-0.135
TTAGATATCAGTCTCGTTTAGTGCTAG,1.75
TCATATGTCTGTTTTTGACTGTGCTAG,0.432
GACGATATCAGTCTCGAGATGTGCTAG,0.8
TTAGGACTGGGTTTCCGTTAGTGCTAG,0.358
TCAAGTTTGACATCTTCAACTGTGCTA,-0.182

# Block 3 — technique: protein-binding microarray; molecule type: double-stranded DNA, one strand shown; medium: in vitro; concentration: 0.8 µM; setting: whole 60-bp probe, no competitor; direction: higher = stronger binding
# Target: Centromere-binding protein 1, full length, N-terminal tag (CBF1, Saccharomyces cerevisiae, UniProt P17106, residues 1-351)
# Sequence of UniProt P17106 (whole entry, looked up): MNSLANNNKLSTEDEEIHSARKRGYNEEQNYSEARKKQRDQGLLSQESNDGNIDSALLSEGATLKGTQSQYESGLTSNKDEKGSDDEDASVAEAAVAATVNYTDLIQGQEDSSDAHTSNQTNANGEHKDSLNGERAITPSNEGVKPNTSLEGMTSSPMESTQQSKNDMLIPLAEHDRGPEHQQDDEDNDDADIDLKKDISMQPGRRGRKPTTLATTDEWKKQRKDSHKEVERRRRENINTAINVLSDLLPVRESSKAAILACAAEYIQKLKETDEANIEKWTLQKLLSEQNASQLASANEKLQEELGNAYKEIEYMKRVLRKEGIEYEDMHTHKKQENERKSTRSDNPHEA
Strand,fluorescence intensity [a.u.]
GAATTTCAAATCGATGACAGCTGATAGAAAGCGTAGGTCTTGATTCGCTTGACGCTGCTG,628
GAATATTAAAAATATCAGCAGAGACGTAAAAGTTAGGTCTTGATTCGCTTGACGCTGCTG,534
GAAATATCCTGCACTGACGTGTCACAAGAAAAATAGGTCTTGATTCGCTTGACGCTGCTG,676
CTAGTGTAGATAGGTGACGCTAGAGCCGTATATTTCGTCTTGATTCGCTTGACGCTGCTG,511
CCTAACTACTATAATCACGGATAATAGCTTCGTACAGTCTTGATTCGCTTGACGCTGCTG,578
GAATGCTTTCATTTCGGCGTGATGGTACGGCACTAGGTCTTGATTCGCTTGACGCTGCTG,574
GAACGTTAAAACCAGAACGTGCACAATTTTTTTTAGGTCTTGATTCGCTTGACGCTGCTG,786
GAATTGTGATACAGCCACATGAACAGATTCCCATAGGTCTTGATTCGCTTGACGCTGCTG,558
GAAGTAGTAGACCTACACGGGATGAAGGATATCTAGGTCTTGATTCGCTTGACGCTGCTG,514
CTATTTGGTTTTATTCATATGATTCTTCTTTAGTTCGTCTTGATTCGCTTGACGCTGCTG,531
CTAGTCTCCGCCGTGTTGGTGATGCAGTTTTCTTTCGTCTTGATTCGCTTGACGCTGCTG,518
GAATAGGCACTATGAAGCGTGCGCCTCGTATACTAGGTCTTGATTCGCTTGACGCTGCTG,495
CTACCTTGAACTTCTCGGGTGACCCCCTTAGCGTTCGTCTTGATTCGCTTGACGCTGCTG,508
CTATGATATTTTCACCAGACATTTCTTTAGCCATTCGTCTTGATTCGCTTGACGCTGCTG,534
TGTACGAAGCTATGAAACATCAGTATAGTAGTTAGGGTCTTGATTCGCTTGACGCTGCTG,552
GAAGCAATTTCCGATCACCTCTCATGCGAATATTAGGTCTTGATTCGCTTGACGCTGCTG,568
GAAATGGTAATGATTCACGTGATCTAGAAACTTTAGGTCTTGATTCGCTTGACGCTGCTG,19800
CTAGGATATTAACCTCACAACGTGATAGAAACCTTCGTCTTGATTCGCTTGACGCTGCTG,1210

# Block 4 — technique: RNA Bind-n-Seq; molecule type: RNA; medium: in vitro; concentration: not given; relative to: input RNA pool; direction: higher = stronger binding
# Target: RING finger protein unkempt homolog, zinc fingers 1-6, GST-SBP tag (UNK, Homo sapiens, UniProt Q9C0B0, residues 30-357)
# Setting: RNA with constant flanks, human and mouse sites, ends assumed
# Residues (chain): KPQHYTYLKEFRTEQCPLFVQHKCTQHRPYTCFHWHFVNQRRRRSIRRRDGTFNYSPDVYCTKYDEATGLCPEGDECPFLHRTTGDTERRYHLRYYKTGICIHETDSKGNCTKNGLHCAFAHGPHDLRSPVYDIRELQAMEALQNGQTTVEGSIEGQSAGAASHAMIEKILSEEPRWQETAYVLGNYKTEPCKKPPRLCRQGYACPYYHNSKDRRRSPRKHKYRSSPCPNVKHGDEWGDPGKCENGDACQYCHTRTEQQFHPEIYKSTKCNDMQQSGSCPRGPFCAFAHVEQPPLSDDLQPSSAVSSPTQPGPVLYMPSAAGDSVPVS
Strand,bound/input enrichment [ratio]
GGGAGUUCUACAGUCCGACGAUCGCGGAAUAAUAAGCCGGGAUCUACCAUACCCAUUGACUAACUAUGGAAGAUUAUACCAAAAUAGAGAAAAUUGGAGAAGGUACCUAUGGAGUUGUGUAUAAGGGUAGACACAAAACUACACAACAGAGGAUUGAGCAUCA,0.365
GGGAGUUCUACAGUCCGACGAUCCAUGUGUGUCUAUGUGUCUCUUGUUUUUCUUGCAUGUGUAUAUGUGUACUGCUUAUACACCUUAGUCUGUGGAGUUCAAAAGAAUCCAUUGUUUAACCUGGAUGGUUGUGAGUCAGUAUGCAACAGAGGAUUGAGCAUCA,0.404
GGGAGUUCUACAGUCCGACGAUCUCUGAUAAACUUAACAAUGGGGGAUCUGAUAGCCCUUGUGACUUGAAAUCACCUAAUGCAUUUAGUGAAAAUCGCCAGGACUAUUUUGAUUAUGAGUCAACCAAUCCAUUUACAGCAAAACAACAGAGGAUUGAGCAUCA,0.259
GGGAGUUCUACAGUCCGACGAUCACUUUUAAUUUUGCAAAGAAUCCAGGACAAAAAGGAUUAGAUCUAGAAAUGGCCAUUGCUUACUGGAACUUAGUGCUUAAUGGAAGAUUUAAAUUCUUAGACUUAUGGAAUAAAUUUUUGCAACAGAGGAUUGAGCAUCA,2.64
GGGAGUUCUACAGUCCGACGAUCCGUAGAGGGACAGAGAGCUUAGAUCACCUUGCUGGUCUUUCUCAUUAUUACCAUGCUGAUACUAGCUACAGACAUUUUCCAAAAUCUGAGAAGUAUAGCAUCAGUAGACUCACACUUGAACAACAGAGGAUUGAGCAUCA,0.128
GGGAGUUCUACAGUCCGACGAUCAAUGAGAUGAUGCAAAAUGAAGAAAAAUAUGAAAAAAUCUUAAAGGCAUUGAACAGUCGUCGUAUUAUUCCCAGACCAUUUGUAGCUCAAAAACUUGCAUCAAGUGAUGACUUUAUAUCUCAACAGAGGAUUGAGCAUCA,0.238
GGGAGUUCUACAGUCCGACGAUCACUAAGACCGAGUAUGAACCUGACCGCAAGAAAGGGAAAGCACGUCCUCCCCAAAUUGCUGAGUUCACCGUCAGCAUCACGGAGGGUGUCACCGAGAGGUUUAAGGUCUCCGUGUUGGUCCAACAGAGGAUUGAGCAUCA,0.0571
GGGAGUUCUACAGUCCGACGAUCCCACCAGAUACCGCUGCCAGACUGGGUUGGUCCCAGCCCCUAGGAAACCUUCAAGCUCCUUUAGGUUAUGAUAAAUUUAGCUAUUCUUGGCGGAGCAAAAAGGGAACCAAGUUCCACCAGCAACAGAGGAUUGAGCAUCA,7.46
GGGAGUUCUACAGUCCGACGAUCAAGAUCUCCAUGGACGUGUUCGUGAGGAGGUUCCAGCCGGAACGCUACAAACUUUGGAAAGCUGGGAAGGACAGCAUGGUUAUUGACCACACUCUGCCCACACCGGAAGCAGCCGAGUUCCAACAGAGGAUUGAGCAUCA,0.0864
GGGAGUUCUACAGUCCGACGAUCGGGUGGGUUUGGGGCCGGGGGCGGGUCUGGGGGCGGACCCGGAGGCGGGGCUGUCUCUGCGGCAGGGCCCAGUUCGGCUCCCCCAGUCUCUCUCUGUCUCUCCUCCUCCCUCCUCCUGCUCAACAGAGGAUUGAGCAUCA,1.32
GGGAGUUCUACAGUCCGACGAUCUGUCGCUCCUUUGGAAAUAAUAAAUAUCCACAAAAUAGUGAUGAUGAAGAAAAUGAACCACAGAUUGAAAAAGAGGAAAUGGAGCUUAGUUUGGUGAUGUCCCAGAGAUGGGACAGCAAUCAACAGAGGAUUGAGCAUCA,1.05
